Published values gathered from unrelated publications.
Lines come from different studies, so protocols differ.
B1: protein (Thermotoga neapolitana, UniProt B9K712); chain MKMLYDLAKKRKTVRRFKKEKPPLEDLIYSLKVANEAPSGMNAQPWRFLIVEDEKLKGQIRRVCERSEKTFYENVRGRLKEWLDEKRFTWRKPFLKEAPYLLLVFSEKSAPYSRESVWLAVGYLLLALEEKGLGSVPYTPPDFREVEKLVNTPSELRLEVILPVGYPDDPKPKYPRNEVIVRYNTF
B2: Msrb2 C98S (Mus musculus, UniProt Q78J03); chain ADWQKKLTPEQFYVTREKGTEAPFSGMYLNNKETGMYHCVCCDSPLFSSEKKYSSGTGWPSFSEAYGSKGSDESHTGILRRLDTSLGCPRMEVVCKQCEAHLGHVFPDGPKPTGQRFCINSVALKFKPSKP
B3: Kmo (Rattus norvegicus, UniProt O88867); chain MASSDTEGKRVVVIGGGLVGALNACFLAKRNFQVDVYEAREDIRVANFMRGRSINLALSYRGRQALKAVGLEDQIVSKGVPMKARMIHSLSGKKSAIPYGNKSQYILSISREKLNKDLLTAVESYPNAKVHFGHKLSKCCPEEGILTMLGPNKVPRDITCDLIVGCDGAYSTVRAHLMKKPRFDYSQQYIPHGYMELTIPPKNGEYAMEPNCLHIWPRNAFMMIALPNMDKSFTCTLFMSFEEFEKLPTHSDVLDFFQKNFPDAIPLMGEQALMRDFFLLPAQPMISVKCSPFHLKSRCVLMGDAAHAIVPFFGQGMNAGFEDCLVFDELMDKFNNDLSVCLPEFSRFRIPDDHAISDLSMYNYIEMRAHVNSRWFLFQRLLDKFLHALMPSTFIPLYTMVAFTRIRYHEAVLRWHWQKKVINRGLFVLGSLVAIGSAYILVHHLSPRPLELLRSAWTGTSGHWNRSADISPRVPWSH
B4: enzyme (Streptomyces platensis, UniProt A0A0A0V031); chain MQHTTIGDVLREHRRSHPGRTALVDGPVRLTWPELDDRVNRLAGSLAASGIGRGDRIMWLGQNSFRVYELIAAAGKLGAMVCVGYWRWAPPEMEFALRDFDPHLVVWQHQEIHETVARTREALGSDDTARWLRHDSAPQDPDGYEAFLAAGGLADPDLDIDPDSPVLVLYTAAMSGRQCGSLLSHTNLIAMATAAAWLGDIDHTTAFLNSGPMFHIGNHQFWGMPTLLMAGKNVIVRRVVAEEVRDLLVAEECTHAFLMPPTVAEIVRLNRDTGHDLSRLRATVAPHLWEGMATTDTSRFTRSGAAAGRGYGQTELSGFAVTAAYGGPAAGNAGRPGPGLTVRVLDTAGRECAVGEAGEICARGTVVHRGYWNRDEVNAHRFRSGWWHTTDLGRREPDGSLTFLGTTTRMLKSAAENIFPAEVENCIEQHPAVREAAVIGVPNTRWAQDVKAVVVLEPDAGVSEQEIIDHCRPRIASYKKPKSVAFAAALPRTVSGARDYDALDKEYGGGGYPGAATLGPGR
B5: SULT1A1 (Homo sapiens, UniProt P50225); chain MELIQDTSRPPLEYVKGVPLIKYFAEALGPLQSFQARPDDLLISTYPKSGTTWVSQILDMIYQGGDLEKCHRAPIFMRVPFLEFKAPGIPSGMETLKDTPAPRLLKTHLPLALLPQTLLDQKVKVVYVARNAKDVAVSYYHFYHMAKVHPEPGTWDSFLEKFMVGEVSYGSWYQHVQEWWELSRTHPVLYLFYEDMKENPKREIQKILEFVGRSLPEETVDFVVQHTSFKEMKKNPMTNYTTVPQEFMDHSISPFMRKGMAGDWKTTFTVAQNERFDADYAEKMAGCSLSFRSEL
B6: enzyme (Viola tricolor, UniProt A0AA51VI44); chain MEYSGNPNNHSPHVAILAGAGIGHLTPILRLAASLLKRNCLVTLITGHPCVSDAESKLISAFLSAFPQARKEQFHIVPVDPPVEGCDPFWLQWEATRRSLQVLPSLLHSLSPPLSALVTDVTLLTPVLEFTATLKNLPKYILFVSCARMFSLLASYHTFFSTTHHLPDDDYFSKAELLETPFPGVGPFLKSSIPAALQEATNLFVSIFKEDGKRVSSFDGVFINTFDRLEPELVGNGAKLFDGRVMPPLITVRLSPCDFERGAGASKLGWLDDQAPGSVVYVSFGSRIAIKKERIREIGEGLVRCGYPFLWVVKDKIVDKEDTALLEDVIGDELMEKVKSKGLVVKEWVDQGEILGHKAVGGFVNHSGWNSVTEAAWCGMRVLAWPADADQGLNAEAVEKSGLGIWAKDWGCLAGPNSDKMVTGEEIGTKIQEMMGNDLLRLQAQQIRDEARNAFGDGGTCENALKELIEKWKINQ
B7: PPIP5K2 (Homo sapiens, UniProt O43314); chain MSEAPRFFVGPEDTEINPGNYRHFFHHADEDDEEEDDSPPERQIVVGICSMAKKSKSKPMKEILERISLFKYITVVVFEEEVILNEPVENWPLCDCLISFHSKGFPLDKAVAYAKLRNPFVINDLNMQYLIQDRREVYSILQAEGILLPRYAILNRDPNNPKECNLIEGEDHVEVNGEVFQKPFVEKPVSAEDHNVYIYYPTSAGGGSQRLFRKIGSRSSVYSPESNVRKTGSYIYEEFMPTDGTDVKVYTVGPDYAHAEARKSPALDGKVERDSEGKEVRYPVILNAREKLIAWKVCLAFKQTVCGFDLLRANGQSYVCDVNGFSFVKNSMKYYDDCAKILGNIVMRELAPQFHIPWSIPLEAED
B8: genB3 Q310N (Micromonospora echinospora, UniProt Q2MG50); chain MDSANLTNRGLVERARRVTAAENYDIGTRFSAMIQSGEGAWLTDVEGNRYVDLTASSGTIILGHRNQAVTEAITRQIRDFGTAFASTLSVPRVELAERLCERYECAEKVVFHKTGSEGTAMAARLARAATGRELILSCGYHGWHEWQLAGETFGYQQTTGVVGFGYNEKALAKMLEAFGNEVAGVLISPELLYFDVEFYQRMYALCARYDVPFMMDEVYTGFRAGPKGVHGLGVPADVVVVSKGLANGHSLAAVMGRRDIIDAYDVSGINGTYTREVPPMAAAMAVLDVLDTPGVYEHAEAMGRRLADGMREILTGEGIPNWVGGPALMFDTVLPNDDLGWEIYKTAHDFGVYFEDSGTQLVTTAFDEAAVDHALTAFRKATRQVIADRPDIAPTSGGELTEERKLDFAEEAFGGLLRDDERTNALIDETIEKVVNRDRSIKPVLIPAQN
B9: DTYMK (Homo sapiens, UniProt P23919); chain MAARRGALIVLEGVDRAGKSTQSRKLVEALCAAGHRAELLRFPERSTEIGKLLSSYLQKKSDVEDHSVHLLFSANRWEQVPLIKEKLSQGVTLVVDRYAFSGVAFTGAKENFSLDWCKQPDVGLPKPDLVLFLQLQLADAAKRGAFGHERYENGAFQERALRCFHQLMKDTTLNWKMVDASKSIEAVHEDIRVLSEDAIRTATEKPLGELWK
B10: enzyme (UniProt A0A2P1BT29); chain MNERFTLPAHSPALAALVPEFLDLARAASGDPAAEERDLAVWENLTEHVSLDYRFANPPVHGPGDWDTYDSRFVDPAGVEIGTLQGTGRILYERSSDAHLMMYYREQLTFPDGTAQTAGWVDGTAILGGAWQRFPILGSGGRYGSMIGLRSFQPTPEAPHSLYRTHLVLREIPGGHGLTDPEEIDAALSLLGAFVGPSVNPATGNGRLEPPVRAGRTA
Sequence of UniProt Q9ZGI2 (whole entry, looked up): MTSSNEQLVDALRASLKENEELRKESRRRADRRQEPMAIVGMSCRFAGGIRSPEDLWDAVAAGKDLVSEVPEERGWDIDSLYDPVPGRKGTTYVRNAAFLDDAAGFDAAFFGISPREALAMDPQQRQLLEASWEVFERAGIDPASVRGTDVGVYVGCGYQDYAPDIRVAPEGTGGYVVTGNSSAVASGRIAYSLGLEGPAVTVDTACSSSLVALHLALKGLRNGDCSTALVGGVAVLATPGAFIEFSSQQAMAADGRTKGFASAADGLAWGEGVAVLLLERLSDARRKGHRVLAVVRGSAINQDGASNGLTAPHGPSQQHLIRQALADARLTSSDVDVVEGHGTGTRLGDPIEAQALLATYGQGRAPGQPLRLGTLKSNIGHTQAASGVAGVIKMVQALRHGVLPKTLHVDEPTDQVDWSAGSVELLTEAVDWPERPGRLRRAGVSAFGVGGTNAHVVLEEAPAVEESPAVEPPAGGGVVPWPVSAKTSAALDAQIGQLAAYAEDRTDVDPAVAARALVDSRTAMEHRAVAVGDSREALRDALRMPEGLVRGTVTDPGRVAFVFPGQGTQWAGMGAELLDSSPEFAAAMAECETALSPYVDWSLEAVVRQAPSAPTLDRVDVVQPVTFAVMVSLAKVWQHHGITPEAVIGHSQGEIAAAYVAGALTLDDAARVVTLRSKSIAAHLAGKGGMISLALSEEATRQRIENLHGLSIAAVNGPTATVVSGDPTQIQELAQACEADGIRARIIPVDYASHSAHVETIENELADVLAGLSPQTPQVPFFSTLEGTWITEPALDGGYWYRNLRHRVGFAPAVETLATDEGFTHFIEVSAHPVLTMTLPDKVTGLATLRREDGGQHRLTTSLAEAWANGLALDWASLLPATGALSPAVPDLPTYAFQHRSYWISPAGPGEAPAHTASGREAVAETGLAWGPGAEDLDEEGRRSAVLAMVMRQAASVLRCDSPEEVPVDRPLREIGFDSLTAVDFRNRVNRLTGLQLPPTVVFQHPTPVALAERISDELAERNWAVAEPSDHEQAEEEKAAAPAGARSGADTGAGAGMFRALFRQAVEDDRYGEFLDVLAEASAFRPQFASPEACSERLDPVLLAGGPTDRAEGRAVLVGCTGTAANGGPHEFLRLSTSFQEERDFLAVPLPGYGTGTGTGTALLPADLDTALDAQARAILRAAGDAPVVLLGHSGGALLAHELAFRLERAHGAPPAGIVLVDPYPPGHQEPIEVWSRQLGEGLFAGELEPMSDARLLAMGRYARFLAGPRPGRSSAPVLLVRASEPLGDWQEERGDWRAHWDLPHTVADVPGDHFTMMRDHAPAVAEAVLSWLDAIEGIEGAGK
Sequence of UniProt P19525 (whole entry, unmodified, looked up): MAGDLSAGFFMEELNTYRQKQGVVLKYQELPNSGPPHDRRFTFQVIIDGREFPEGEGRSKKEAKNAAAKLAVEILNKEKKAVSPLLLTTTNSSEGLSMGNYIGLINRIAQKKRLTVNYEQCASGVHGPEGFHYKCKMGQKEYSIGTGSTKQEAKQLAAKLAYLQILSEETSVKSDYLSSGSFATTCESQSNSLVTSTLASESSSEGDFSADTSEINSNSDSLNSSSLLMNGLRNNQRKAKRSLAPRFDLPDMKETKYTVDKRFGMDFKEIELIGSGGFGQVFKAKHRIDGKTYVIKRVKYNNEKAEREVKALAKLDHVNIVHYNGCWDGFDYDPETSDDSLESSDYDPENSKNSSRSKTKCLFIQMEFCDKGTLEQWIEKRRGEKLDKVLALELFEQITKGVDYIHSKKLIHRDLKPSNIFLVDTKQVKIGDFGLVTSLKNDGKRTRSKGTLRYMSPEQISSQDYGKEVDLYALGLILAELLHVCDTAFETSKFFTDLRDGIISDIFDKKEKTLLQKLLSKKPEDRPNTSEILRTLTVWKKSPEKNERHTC

B1 (protein)
Km (N[C@@H](Cc1ccc(O)c(I)c1)C(=O)O; steady-state kinetics; pH 7.4, 60 °C): 3.5 µM

B2 (Msrb2 C98S)
Km (CN(C)c1ccc(/N=N/c2ccc(S(=O)(=O)N[C@@H](CC[S@@+](C)[O-])C(=O)O)cc2)cc1; steady-state kinetics; pH 7.5, NaCl 50 mM, with: DTT 20 mM): 50 µM

enzyme (Astragalus mongholicus, UniProt A0A977WLP2)
Km (CC(C)(O)[C@@H]1CC[C@](C)([C@H]2[C@@H](O)C[C@@]3(C)[C@@H]4C[C@H](O[C@@H]5O[C@H](CO)[C@@H](O)[C@H](O)[C@H]5O)[C@H]5C(C)(C)[C@@H](O)CC[C@@]56C[C@@]46CC[C@]23C)O1; steady-state kinetics; pH 8, 35 °C): 109 µM

B3 (Kmo)
Km (Nc1ccccc1C(=O)CC(N)C(=O)O; steady-state kinetics; HEK; 37 °C, rat Kmo, in cells, apparent, not purified): 258 µM

B4 (enzyme)
Km (C[C@@]12CCC[C@@](C)(C(=O)OP(=O)(O)OC[C@H]3O[C@@H](n4cnc5c(N)ncnc54)[C@H](O)[C@@H]3O)[C@H]1C[C@@H](O)[C@]13C[C@H]4C[C@H](O[C@@]4(C)C1)[C@@H]23; steady-state kinetics; pH 7.8, 25 °C): 1.5 µM

B5 (SULT1A1)
Km (O=C(O[C@@H]1Cc2c(O)cc(O)cc2O[C@@H]1c1cc(O)c(O)c(O)c1)c1cc(O)c(O)c(O)c1; steady-state kinetics; pH 7.4, not purified, with: EGCG 0–0.4 µM): 0.38 µM

enzyme (Streptomyces venezuelae, UniProt Q9ZGI2)
Km (CC[C@@H](O)[C@H](C)/C=C/C(=O)[C@H](C)C[C@H](C)[C@H](O)[C@@H](C)C(=O)SCCNC(C)=O; steady-state kinetics): 4060 µM

B6 (enzyme)
Km (O=C(CC(=O)c1c(O)cc(O)c([C@@H]2O[C@H](CO)[C@@H](O)[C@H](O)[C@H]2O)c1O)c1ccc(O)cc1; steady-state kinetics; pH 8, 37 °C): 18 µM

B7 (PPIP5K2)
Km (O=P(O)(O)O[C@H]1[C@@H](OP(=O)(O)O)[C@H](OP(=O)(O)O)[C@@H](OP(=O)(O)OP(=O)(O)O)[C@H](OP(=O)(O)O)[C@H]1OP(=O)(O)O; steady-state kinetics): 0.06 µM

enzyme (Trypanosoma brucei, UniProt Q57W34)
Km (CC(=O)N[C@H]1[C@H](O[C@H]2[C@H](O)[C@@H](NC(C)=O)[C@@H](OP(=O)(O)OP(=O)(O)OCC[C@@H](C)CC/C=C(/C)CC/C=C(\C)CC/C=C(\C)CCC=C(C)C)O[C@@H]2CO)O[C@H](CO)[C@@H](O[C@@H]2O[C@H](CO[C@H]3O[C@H](CO)[C@@H](O)[C@H](O)[C@@H]3O)[C@@H](O)[C@H](O[C@H]3O[C@H](CO)[C@@H](O)[C@H](O)[C@@H]3O)[C@@H]2O)[C@@H]1O; steady-state kinetics; pH 7.5): 18.8 µM

enzyme (Actinoalloteichus caeruleus, UniProt M1F4W9)
Km (CC(C)C[C@H](NC(=O)c1cc(O)cc(-c2ccccn2)n1)C(=O)O; steady-state kinetics; pH 8, 30 °C): 1510 µM

B8 (genB3 Q310N)
Km (CN[C@@H]1[C@@H](O)[C@@H](O[C@@H]2[C@@H](O)[C@H](O[C@H]3O[C@H](CN)[C@@H](O)[C@H](OP(=O)(O)O)[C@H]3N)[C@@H](N)C[C@H]2N)OC[C@]1(C)O; steady-state kinetics; 30 °C): 250 µM

enzyme (Astragalus mongholicus, UniProt A0A977WMR2)
Km (CC(C)(O)[C@H]1CC[C@@](C)([C@H]2[C@@H](O)C[C@@]3(C)[C@@H]4C[C@H](O)[C@H]5C(C)(C)[C@@H](O)CC[C@@]56C[C@@]46CC[C@]23C)O1; steady-state kinetics): 55.5 µM

B9 (DTYMK)
Km (Cc1cn([C@H]2C[C@H](O)[C@@H](COP(=O)(O)O)O2)c(=O)[nH]c1=O; steady-state kinetics; with: ATP 2 mM, Mg2+ 2 mM): 20 µM

enzyme (UniProt A0A1I5R890)
Km (Cn1cncc1C[C@H](N)C(=O)O; steady-state kinetics): 1.9 µM

RNA 1 GGAGGAUGUUAAUUGGCGUGUCUUGUCUGCAACGGUAUUC / RNA 2 GAAUACCGUUGCAGACAAGACACGCCAAUUAACAUCCUCC (dsRNA)
binding (EIF2AK2 1-185 F41W/R107A (Homo sapiens, UniProt P19525); tryptophan fluorescence anisotropy; double-stranded RNA; 1 µM): binds

B10 (enzyme)
Km (C=C1OC(=O)C(C(=O)CC[C@H](C)C(=O)/C=C/C=C/C(C)=C/C)=C1O; steady-state kinetics; pH 8, 30 °C): 51.2 µM
